# Results gathered from unrelated publications.
# Every numbered part comes from another study and shows a few of its results, in no order.

# Series 1 — technique: RNA Bind-n-Seq; form: RNA; sample: in vitro; concentration: 365 nM; baseline: no-protein control; reading: higher = stronger binding
# Target: RNA binding protein fox-1 homolog 2, RRM domain, GST-SBP tag (RBFOX2, Homo sapiens, UniProt O43251-10, residues 100-194)
# Setting: natural RNA segment, single round, ends assumed
# Target sequence (chain): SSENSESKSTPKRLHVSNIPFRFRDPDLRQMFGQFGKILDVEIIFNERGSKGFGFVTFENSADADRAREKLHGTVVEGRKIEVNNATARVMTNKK
Strand,RBNS enrichment (R)
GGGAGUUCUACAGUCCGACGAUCGGUUUGGGAAGAAACAAAGCCAUGCCUGCUCCUGCCUCUCUCCCAACAUGUUUCCAGCAAGUAGAUGCCCCUGUGUGUGUUUUCCCUUGCCUUGUUUCCUGCCUUAUAUCUGGAAUUCUCGGGUGCCAA,7.21
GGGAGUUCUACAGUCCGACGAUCCUCUCGACUCCUGUGGCAUGGUGCUAGUGCAUGUGACCUGUGCUGUUGUCACCCCAUGUGUUGUGUGUGACCUGUCCUCGUGUGCCCUUGGUGUCUGACUUCAGAGAGUCUGGAAUUCUCGGGUGCCAA,7.44
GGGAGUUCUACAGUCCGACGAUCUCUUUAGCAUAAAUGCAUUCAUUCUUUAAUAAAAAUAUGUUUGCAUUAAUAAAGCUGAGGAGUUUCAACUUUGUGUCUGUCCUUUUUCAAGUAAUAAAAACAUGAAGAACUGGAAUUCUCGGGUGCCAA,0.317
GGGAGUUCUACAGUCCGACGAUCCCUCUACCUGGCCCUCAUCCCAACAGCCCAGCAAGGGGAGAGAGAAAGAGAAUUCUUUUCUAUAGAACGAGUGGGGGCGGGGAUGGGUAGGGAUUUAUCCAAUCUAAGCCUGGAAUUCUCGGGUGCCAA,0.48
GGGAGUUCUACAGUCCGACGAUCAUUCAGACUAUUGUUGGCACUGUUUAGUAGUGACCACACGCUCUUCUACCCGGGAAGGAACAUAUGACGACAUGCUCCUCCCAUGUCCCCUGAUGGUGUCUGUUCCCACAUGGAAUUCUCGGGUGCCAA,0.38
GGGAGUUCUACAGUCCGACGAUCUGUUGCAGCUUUCCUUCCCUCUAGCUCAGGAGGCCUGGCCUGAGCCAGGUUGGAGCUUAAAUUGCUGUUGGCUCCUGCCUGGUGGAACAAGGGGGUCAUAGAAACCAGGGUGGAAUUCUCGGGUGCCAA,0.342
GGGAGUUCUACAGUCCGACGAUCUGUCAGUCAUGUAACUGGCAAGGAUCACAGCCCGGUUGGGUGGCAUUCUGUGCCUCUGGCUUGGCUGAACAGUUCUGGAAUUACCACCAGAAUCCUUGACUCCCUGCCCCUGGAAUUCUCGGGUGCCAA,0.193
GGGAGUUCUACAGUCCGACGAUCUUAGAAGGCUGCGGUGAUUCAAUUAGAUUGUCCCACUGCUGAGACCUGUAGGGCAGCUUCUAACAUGCUUUUUUCAAGGGGAGAGGAGUAGUGACAAGUCGUGUGUCGGAUGGAAUUCUCGGGUGCCAA,0.649
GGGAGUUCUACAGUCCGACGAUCUGGGCUCCAGUAAUGCUUUCUGGUGGGUAAAAUUCCACAUUCAGGCCACGAGAGCAUCUACAGUUUGUACUCUGGGGCUGCAGGCAUCCUGGGACGCUGUACGCAAUUCAUGGAAUUCUCGGGUGCCAA,0.828

# Series 2 — technique: protein-binding microarray; form: double-stranded DNA, one strand shown; sample: in vitro; concentration: 250 nM; setting: 60-bp whole probe; together with: salmon DNA 0.4 mg/ml; baseline: random background probes; reading: higher = stronger binding; constant ends, left off below: GCCTAGCAC … GTCTTGATTCGCTTGACGCTGCTG
# Target: Interferon regulatory factor 7, full length, phosphomimetic (IRF7, Homo sapiens, UniProt Q92985, residues 1-503, S101K/S471D/S472D/S475D/S476D/S477D/S483D/S484D/S487D)
# Sequence of UniProt Q92985 (whole entry, unmodified, looked up): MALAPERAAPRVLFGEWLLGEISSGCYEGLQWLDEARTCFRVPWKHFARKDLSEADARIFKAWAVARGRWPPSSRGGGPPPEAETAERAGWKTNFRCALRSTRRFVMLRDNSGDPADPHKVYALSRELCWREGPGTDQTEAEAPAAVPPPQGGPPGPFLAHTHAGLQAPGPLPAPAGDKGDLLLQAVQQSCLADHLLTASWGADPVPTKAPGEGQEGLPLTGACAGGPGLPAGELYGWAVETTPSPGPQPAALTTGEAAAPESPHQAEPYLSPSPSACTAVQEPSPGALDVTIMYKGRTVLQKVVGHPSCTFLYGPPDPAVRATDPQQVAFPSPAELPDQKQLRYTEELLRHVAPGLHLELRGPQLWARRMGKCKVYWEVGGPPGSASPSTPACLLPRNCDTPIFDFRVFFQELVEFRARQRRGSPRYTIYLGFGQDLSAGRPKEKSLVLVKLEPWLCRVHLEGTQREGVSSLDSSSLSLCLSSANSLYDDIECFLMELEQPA
Strand,log fluorescence [z-score]
TCATATATCTGAACCGCACTGTGCTAG,0.733
CCGAGTCCCTATCTCCTCACGTGCTAG,1.09
TTAGGTTTCGGGACTGAGTTAGTGCTA,3.38
ACTGATCACCGATTTCCTTCAGTGCTA,0.139
TTAGAACTGCGTTTCGATTAGTGCTAG,2.67
TTAGATATCAGAGTGGATTAGTGCTAG,-0.0215
GTAGGTCTCCTTCTCCTTTAGTGCTAG,-0.0796
TTAGGTATCGTTATCCTTTAGTGCTAG,2.49
GACGATTTCAGTGCCGAGACGTGCTAG,-0.0584
GACGATATCTGGACTGGAGACGTGCTA,-0.333
TGAAGACTTTCTTTCAAATGGTGCTAG,-0.204
TTAGAACTGGGGTATCGATAAGTGCTA,-0.242
TCCCTTATAAATAGCACAGGGTGCTAG,0.591
TCAGCTCACGCTTTGGAACTGTGCTAG,-0.351
TCAGGTCTGGGTATTTTACTGTGCTAG,-0.926
TTAGGTATCGGTATAGGTTAGTGCTAG,1.16
GACGGTTCCGGTTGCGGGACGTGCTAG,1.33
GACGATTTCAGTCTCGAGTCGTGCTAG,1.78

# Series 3 — technique: competition protein-binding microarray; form: double-stranded DNA, one strand shown; sample: in vitro; concentration: 2 µM; together with: Cbf1 competitor, 0.05 µM; reading: higher = stronger binding
# Target: Phosphate system positive regulatory protein PHO4, full length, GST-tagged (PHO4, Saccharomyces cerevisiae, UniProt P07270, residues 1-312)
# Setting: whole 60-bp probe, lowest competitor level
# Construct (chain): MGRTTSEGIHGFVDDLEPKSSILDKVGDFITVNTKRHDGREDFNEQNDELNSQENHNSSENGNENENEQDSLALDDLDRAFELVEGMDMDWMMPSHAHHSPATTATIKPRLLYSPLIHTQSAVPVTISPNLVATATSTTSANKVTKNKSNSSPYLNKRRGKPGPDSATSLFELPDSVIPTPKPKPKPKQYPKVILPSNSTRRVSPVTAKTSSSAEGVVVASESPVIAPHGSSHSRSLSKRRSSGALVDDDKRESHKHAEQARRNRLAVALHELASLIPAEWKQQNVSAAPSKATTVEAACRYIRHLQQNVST
Strand,fluorescence intensity [a.u.]
GTCTTGTCTCATTGATTGGTGGGTGTCCCCACTTCAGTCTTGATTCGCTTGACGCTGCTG,4560
CGTCCTAGTGATTGTTGAGTGGGTGCCATGAGGAAGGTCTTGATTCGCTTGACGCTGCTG,7550
AATTGGGGTGCGAGTCACGTGCAAAACGACGGTAGTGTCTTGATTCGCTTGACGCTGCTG,17000
GTCTTGTCTCATTGGGTCGTGGGTGTCCCCACTTCAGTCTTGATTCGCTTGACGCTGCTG,7810
ATCATTACACCGCGAGTCGTGGGTACATTGTAGTTTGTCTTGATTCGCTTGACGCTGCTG,8940
TACACCGCACTTTCTGGCGTGCTTTGATCTGGCTTGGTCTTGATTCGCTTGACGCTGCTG,5400
TGCGCAACAACTTGTGTTGTGGGTGTATGTCTAGAAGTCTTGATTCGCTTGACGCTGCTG,5800
TGCGCAACAACTTGTCCAGTGGGTGTATGTCTAGAAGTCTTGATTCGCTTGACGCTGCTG,4730
CATACCCAACCTTGTCACCTCACTTAAGATATTTGTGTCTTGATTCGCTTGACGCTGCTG,3620
CTTCTGTAAATTTGTTCAGTGGGTGGACGCGCCCCGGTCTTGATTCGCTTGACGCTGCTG,4390
AAATCATCTCTTTGTCACGTGACTCGAACCTAGCGGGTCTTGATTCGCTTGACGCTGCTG,12800
CTAACGAAGGTTTGGCTCGTGGGTGACAAGCCAAGTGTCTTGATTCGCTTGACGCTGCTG,9980
CGGGGTTAAGTTTTTCACGTGGCTTGCTTGCAGCAGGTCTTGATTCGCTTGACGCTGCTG,13400
ATTTCGCAAGGAGCGGGCGTGCGATGTTAACGTCAAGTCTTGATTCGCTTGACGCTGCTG,8420
ATTGTTTACACCAATCGCGTGGGTAAAGGGGCTGGAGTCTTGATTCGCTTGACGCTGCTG,9120
GCTCTTGCAGCAGTTTCCGTGGGTAGGACCAAGGTCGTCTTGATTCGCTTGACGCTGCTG,3200
TCACTAAATTAGCTGCATGTGCGTTAAATCCACCAAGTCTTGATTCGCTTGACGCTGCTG,11400
GCGCAATATGCAGGTACCGTGCCGACTGATTCCCTTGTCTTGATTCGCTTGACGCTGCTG,5280
TAATCTGATGATCGGCACGTATAGGTCTGCGACCTTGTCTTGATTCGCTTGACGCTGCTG,5350
TATCTCTATCCTGCGACCGTGATGGTACCGAAAGTAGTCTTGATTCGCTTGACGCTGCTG,5250

# Series 4 — technique: universal PBM; form: double-stranded DNA, one strand shown; sample: in vitro; concentration: not given; reading: higher = stronger binding
# Target: Sal-like protein 4, full length isoform B (SALL4, Homo sapiens, UniProt Q9UJQ4-2, residues 1-616)
# Setting: 8-mer, flanks averaged, mean of replicates
# Residues (chain): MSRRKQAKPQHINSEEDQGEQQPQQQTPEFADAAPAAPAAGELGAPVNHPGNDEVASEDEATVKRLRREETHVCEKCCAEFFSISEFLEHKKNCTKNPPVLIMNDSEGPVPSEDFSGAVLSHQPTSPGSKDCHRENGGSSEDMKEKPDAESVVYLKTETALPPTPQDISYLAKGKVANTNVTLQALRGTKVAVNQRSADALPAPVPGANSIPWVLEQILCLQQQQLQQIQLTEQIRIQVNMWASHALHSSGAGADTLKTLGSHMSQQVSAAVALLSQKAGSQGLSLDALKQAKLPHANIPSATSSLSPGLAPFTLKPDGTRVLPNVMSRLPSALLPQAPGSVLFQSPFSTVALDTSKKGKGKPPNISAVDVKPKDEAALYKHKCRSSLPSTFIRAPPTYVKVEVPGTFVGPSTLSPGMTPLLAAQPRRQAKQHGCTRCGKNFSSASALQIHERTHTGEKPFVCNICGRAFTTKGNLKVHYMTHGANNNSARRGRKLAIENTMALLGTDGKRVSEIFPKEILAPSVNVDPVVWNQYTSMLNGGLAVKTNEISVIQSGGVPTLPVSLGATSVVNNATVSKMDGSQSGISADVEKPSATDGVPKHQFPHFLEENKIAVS
Strand,E-score
CTCAGATA,0.0931
AGGTCAGA,-0.123
CTGTCTAC,-0.0164
CATCCGGG,-0.32
GTAACTTA,0.222
TAACCCGA,-0.0722
CAAGGCTA,0.0644
AGGTCACT,-0.172
AGAAAGCC,-0.0977
AACACTTA,0.214
GAAGATCC,-0.211
ATAATGCG,0.312
AGAACTCT,-0.132
AGCATCAT,0.136
CGAATGCA,0.135
GATGGAAA,0.0317
AGCCTTTG,-0.145
ACTGGTCC,-0.263

# A few entries again (series 2):
Strand,log fluorescence [z-score]
TTAGGTTTCGGGACTGAGTTAGTGCTA,3.38
TGAAGACTTTCTTTCAAATGGTGCTAG,-0.204
TCCCTTATAAATAGCACAGGGTGCTAG,0.591
GACGATTTCAGTCTCGAGTCGTGCTAG,1.78
TTAGATATCAGAGTGGATTAGTGCTAG,-0.0215
GACGATATCTGGACTGGAGACGTGCTA,-0.333
TTAGGTATCGGTATAGGTTAGTGCTAG,1.16
GACGATTTCAGTGCCGAGACGTGCTAG,-0.0584
GACGGTTCCGGTTGCGGGACGTGCTAG,1.33
